Earlier results as cited in several papers.
Lines come from different studies, so protocols differ. ± marks the error that the study gave. In brackets after ≈: the same amount, converted by molar mass.
Chain of UniProt Q96PY6 (whole entry, looked up): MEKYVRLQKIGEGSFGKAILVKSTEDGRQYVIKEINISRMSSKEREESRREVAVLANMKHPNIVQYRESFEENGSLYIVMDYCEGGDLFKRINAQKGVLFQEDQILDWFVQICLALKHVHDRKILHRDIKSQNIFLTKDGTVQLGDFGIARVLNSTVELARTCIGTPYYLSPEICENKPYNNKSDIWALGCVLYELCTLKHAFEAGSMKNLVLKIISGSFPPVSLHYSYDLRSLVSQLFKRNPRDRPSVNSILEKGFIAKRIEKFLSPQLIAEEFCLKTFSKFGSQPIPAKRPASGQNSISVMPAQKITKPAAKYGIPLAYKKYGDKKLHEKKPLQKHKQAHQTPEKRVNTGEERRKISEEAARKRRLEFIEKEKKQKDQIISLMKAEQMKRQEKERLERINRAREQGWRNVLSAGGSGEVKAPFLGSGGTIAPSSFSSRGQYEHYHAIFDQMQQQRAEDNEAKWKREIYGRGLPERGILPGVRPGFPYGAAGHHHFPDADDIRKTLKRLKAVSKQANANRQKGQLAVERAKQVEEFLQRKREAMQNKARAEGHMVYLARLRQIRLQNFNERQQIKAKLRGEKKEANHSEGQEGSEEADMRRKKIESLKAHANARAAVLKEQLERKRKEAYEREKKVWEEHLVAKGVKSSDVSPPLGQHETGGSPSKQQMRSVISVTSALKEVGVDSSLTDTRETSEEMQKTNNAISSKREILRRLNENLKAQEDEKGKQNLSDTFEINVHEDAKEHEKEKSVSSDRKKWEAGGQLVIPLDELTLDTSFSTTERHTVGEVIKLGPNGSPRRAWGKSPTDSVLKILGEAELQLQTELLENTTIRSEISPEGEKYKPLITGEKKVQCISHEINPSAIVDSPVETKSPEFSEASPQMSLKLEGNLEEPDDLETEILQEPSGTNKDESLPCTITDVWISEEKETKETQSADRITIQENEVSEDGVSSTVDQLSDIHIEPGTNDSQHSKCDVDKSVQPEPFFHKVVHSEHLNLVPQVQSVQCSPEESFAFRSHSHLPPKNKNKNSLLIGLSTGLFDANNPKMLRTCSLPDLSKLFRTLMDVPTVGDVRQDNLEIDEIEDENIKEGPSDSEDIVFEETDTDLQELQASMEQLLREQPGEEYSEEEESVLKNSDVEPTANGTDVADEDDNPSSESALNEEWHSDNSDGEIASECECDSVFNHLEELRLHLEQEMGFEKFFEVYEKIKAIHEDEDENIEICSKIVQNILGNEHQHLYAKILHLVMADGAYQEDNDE

CC(=O)c1nccnc1C: “odour detection threshold” 4 µg/kg (human, water).
C[N+]1(C)CCC(OC(=O)C(O)(c2ccccc2)C2CCCC2)C1 (centres unmarked): “placebo-corrected trough FEV1 change” 133 mL (COPD patients; inhaled, 100 µg once daily, 24 h postdose, dosing day 1; baseline: baseline).
CN1CC[C@H](c2c(O)cc(O)c3c(=O)cc(-c4ccccc4Cl)oc23)[C@H](O)C1 — result for “partial remission rate”: 25 to 40% (patients with CLL; dose not given).
O=C(O)C(O)Cc1ccc(O)c(O)c1 (centres unmarked) gave an effective dose of 5 mg/kg (anti-inflammatory effect; rat CLP sepsis; intragastric).
Cc1cc(-c2nccc3c2ccn3CC(=O)Nc2ccc(-c3cnccn3)cn2)ccn1 — result for “lung hydroxyproline content”: “decreased” (mouse, bleomycin-induced pulmonary fibrosis; oral, 25 mg/kg once daily, days 14-28).
OCc1ccc(O[C@@H]2O[C@H](CO)[C@@H](O)[C@H](O)[C@H]2O)cc1 — result for “postoperative delirium incidence”: 19.5% (human surgical patients; iv infusion, 600 mg twice daily, postoperative day 6).
CC(F)(F)c1cc(F)ccc1-c1sc2cc(O)ccc2c1Oc1ccc(/C=C/C(=O)O)cc1 — result for “duration of tumour stasis”: 48 days (MCF7, mouse, MCF7 orthotopic xenograft; 20 mg/kg once daily).
The relaxivity r1 of CNC[C@H](O)[C@@H](O)[C@H](O)[C@H](O)CO.O=C([O-])CN1CCN(CC(=O)[O-])CCN(CC(=O)O)CCN(CC(=O)[O-])CC1.[Gd+3] is reported as 3.6 mM⁻¹ s⁻¹ (human plasma; 310 K, 1.41 T).
Under “placebo-corrected trough FEV1 change”, CCc1cc2c(cc1CC)CC(NC[C@H](O)c1ccc(O)c3[nH]c(=O)ccc13)C2 is recorded as 110 mL (COPD patients; inhaled, 150 µg once daily, 24 h postdose, dosing day 1; baseline: baseline).
C=CC(=O)NC1CCN(c2ncc3ncnc(Nc4ccc(Oc5ccc6c(c5)ncn6C)c(C)c4)c3n2)CC1 — result for “confirmed objective response rate”: 71% (pretreated HER2-mutant NSCLC patients; 120 mg once daily).
The inhibition of COC(=O)C1=C(C)NC(C)=C(C(=O)OC)C1c1c(-c2ccc(OC)c(OC)c2)nc2sccn12 is reported as 15 ± 0.9% (calcium-induced contraction; guinea pig aortic strip; 50 µM, with: K+ 80 mM depolarisation).
Nc1cccc2c1C(=O)N(C1CCC(=O)NC1=O)C2=O (centres unmarked): “partial response or better rate” 51% (relapsed refractory multiple myeloma patients; dose not given).
CC1(C)S[C@@H]2[C@H](NC(=O)[C@H](N)c3ccccc3)C(=O)N2[C@H]1C(=O)O gave an MIC of > 16 µg/mL (Enterobacter cloacae; clinical isolate RKI-No_348/15).
Nc1cc(C(F)(F)F)c(-c2nc(N3CCOCC3)nc(N3CCOCC3)n2)cn1 has a remaining activity of 76% (NEK1 (Homo sapiens, UniProt Q96PY6); enzyme activity; 10 µM; baseline: untreated).
CNS(=O)(=O)Nc1nccc(Cc2c(C)c3ccc(Oc4ncccn4)cc3oc2=O)c1F: “patients with tumour shrinkage” 42.2% (evaluable patients; all dose levels; baseline: patients).
For C=C1[C@H](CO)[C@@H](O)C[C@@H]1n1cnc2c(=O)[nH]c(N)nc21, the HBsAg reduction was 0.06 log10 IU/mL (chronic hepatitis B patients; dose not given, 6 months, with: lamivudine; baseline: baseline).
Cc1ccc(Nc2nccc(N(C)c3ccc4c(C)n(C)nc4c3)n2)cc1S(N)(=O)=O: “objective response rate” 31% (Chinese patients, advanced soft tissue sarcoma; dose not given, retrospective study).
O=NN(CCCl)C(=O)NC1CCCCC1: “objective response rate” 3% (patients, recurrent glioblastoma; dose not given, monotherapy).
For CNC(C)C1CCC(N)C(OC2C(N)CC(N)C(OC3OCC(C)(O)C(NC)C3O)C2O)O1 (centres unmarked), the MIC was 1 µg/mL (≈ 2.09 µM) (Enterobacter cloacae; clinical isolate RKI-No_243/15).
COc1ccccc1[C@H](Cn1c(=O)n(C(C)(C)C(=O)O)c(=O)c2c(C)c(-c3ncco3)sc21)OC1CCOCC1 has an EDmax of 3 mg/kg (hepatic de novo lipogenesis; rat; maximal inhibition).
With CCOC(=O)N1CCC(=C2c3ccc(Cl)cc3CCc3cccnc32)CC1 the AC50 was 6.4 µM (antioxidant response element activation, Tox21 HTS).
C=Cc1cnccn1 — result for “odour detection threshold”: 700 µg/kg (human, water).
With OC[C@H]1O[C@H](O[C@]2(CCl)O[C@H](CCl)[C@@H](O)[C@@H]2O)[C@H](O)[C@@H](O)[C@H]1Cl the sweetness potency was 600 (sensory evaluation; human sensory panel, water; unit not given; baseline: sucrose).

A few entries again:
Nc1cc(C(F)(F)F)c(-c2nc(N3CCOCC3)nc(N3CCOCC3)n2)cn1 has a remaining activity of 76% (NEK1 (Homo sapiens, UniProt Q96PY6); enzyme activity; 10 µM; baseline: untreated).
CC(=O)c1nccnc1C: “odour detection threshold” 4 µg/kg (human, water).
O=C(O)C(O)Cc1ccc(O)c(O)c1 (centres unmarked) gave an effective dose of 5 mg/kg (anti-inflammatory effect; rat CLP sepsis; intragastric).
With CCOC(=O)N1CCC(=C2c3ccc(Cl)cc3CCc3cccnc32)CC1 the AC50 was 6.4 µM (antioxidant response element activation, Tox21 HTS).
